Experimental data from different studies.
Parts stem from different laboratories: compare values within a part only. Positions count from the first letter of the parent shown.

Series 1
Target: ABI1, truncated, D143A, DHFR fusion (Arabidopsis thaliana)
Method: DHFR PCA, deep sequencing
Sample: yeast
Setting: methotrexate growth selection, single substitutions
Together with: (+)-ABA 710 µM
Reference: wild-type fitted maximum
Direction: higher = stronger binding
Quantity: relative binding score
Starting sequence: PYL1, truncated, DHFR fusion (Arabidopsis thaliana); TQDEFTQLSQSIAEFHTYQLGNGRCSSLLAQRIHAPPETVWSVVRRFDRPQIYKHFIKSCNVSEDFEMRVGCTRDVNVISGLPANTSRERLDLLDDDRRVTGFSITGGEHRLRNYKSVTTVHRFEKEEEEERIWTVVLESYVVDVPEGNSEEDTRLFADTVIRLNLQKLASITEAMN; partner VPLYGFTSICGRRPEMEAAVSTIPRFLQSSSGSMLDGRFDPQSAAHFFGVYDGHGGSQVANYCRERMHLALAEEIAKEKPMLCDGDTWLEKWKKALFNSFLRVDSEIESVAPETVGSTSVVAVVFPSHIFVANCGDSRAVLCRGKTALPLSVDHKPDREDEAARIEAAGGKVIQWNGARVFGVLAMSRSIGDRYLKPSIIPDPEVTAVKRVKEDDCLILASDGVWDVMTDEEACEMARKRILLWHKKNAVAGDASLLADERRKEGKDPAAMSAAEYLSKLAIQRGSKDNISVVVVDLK
Change = E131F; result = 106%
Change = S104P; result = -5.41%
Change = Q2D; result = 106%
Change = G21M; result = 101%
Change = T154I; result = 85.3%
Change = V100Q; result = 78%
Change = L156A; result = 102%
Change = V161S; result = 10.9%
Change = D48P; result = 57.4%
Change = F15R; result = 85.3%
Change = N85E; result = 99.8%
Change = T73D; result = 92.6%
Change = H110C; result = 64.7%
Change = A170D; result = 60.1%
Change = R123A; result = 108%
Change = I52L; result = 106%
Change = V145S; result = 79.8%

Series 2
Target: UBE2Q2 UBC core domain (UniProt Q8WVN8)
UniProt Q8WVN8, sequence (whole entry, looked up): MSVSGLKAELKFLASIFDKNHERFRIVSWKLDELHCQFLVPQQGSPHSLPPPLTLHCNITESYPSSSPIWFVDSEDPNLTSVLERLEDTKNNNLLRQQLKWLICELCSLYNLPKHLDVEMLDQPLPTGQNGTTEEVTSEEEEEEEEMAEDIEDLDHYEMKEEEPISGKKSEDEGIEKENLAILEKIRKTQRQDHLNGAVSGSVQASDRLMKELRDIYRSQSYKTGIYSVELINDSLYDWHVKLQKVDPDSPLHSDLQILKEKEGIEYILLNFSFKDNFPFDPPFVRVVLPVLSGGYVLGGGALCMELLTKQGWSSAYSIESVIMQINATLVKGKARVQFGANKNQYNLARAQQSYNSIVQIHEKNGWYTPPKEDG
Method: yeast two-hybrid
Sample: yeast
Setting: mostly zero background
Reference: not given
Direction: higher = stronger interaction
Quantity: lacZ reporter activity
B1: ANAPC11 RING domain (UniProt Q9NYG5); chain GICRMAFNGCCPDCKVPGDDCPLVWGQCSHCFHMHCILKWLHAQQVQQHCPMCRQEWKFKE
B2: MEX3B RING domain (UniProt Q6ZN04); chain SGLRRKGSRDCSVCFESEVIAALVPCGHNLFCMECANRICEKSEPECPVCHTAVTQAIRIF
B3: RNF183 RING domain (UniProt Q96D59); chain EQQGRELEAECPVCWNPFNNTFHTPKMLDCCHSFCVECLAHLSLVTPARRRLLCPLCRQPTVLASGQP
B4: RNF187 RING domain (UniProt Q5TA31); chain ALPAGPAEAACALCQRAPREPVRADCGHRFCRACVVRFWAEEDGPFPCPECADDCWQRAVEP
B5: TRIM26 RING domain (UniProt Q12899); chain PLRSLEEEVTCSICLDYLRDPVTIDCGHVFCRSCTTDVRPISGSRPVCPLCKKPFKKENIRP
B6: TRIM37 RING domain (UniProt O94972); chain SVESIAEVFRCFICMEKLRDARLCPHCSKLCCFSCIRRWLTEQRAQCPHCRAPLQLRELVN
Molecule = B1 (ANAPC11 RING domain); result = 0
Molecule = B2 (MEX3B RING domain); result = 0
Molecule = B3 (RNF183 RING domain); result = 0
Molecule = AEADPLGRFTCPVCLEVYEKPVQVPCGHVFCSACLQECLKPKKPVCGVCRSALAPGVRAV (RNF114 RING domain (UniProt Q9Y508)); result = 0
Molecule = B4 (RNF187 RING domain); result = 0
Molecule = B5 (TRIM26 RING domain); result = 0
Molecule = B6 (TRIM37 RING domain); result = 0
Molecule = YCEMGSTFQLCKICAENDKDVKIEPCGHLMCTSCLTAWQESDGQGCPFCRCEIKGTEPII (CBLB RING domain (UniProt Q13191)); result = 0
Molecule = PEELAVNNDDCAICWDSMQAARKLPCGHLFHNSCLRSWLEQDTSCPTCRMSLNIADNNR (AMFR RING domain (UniProt Q9UKV5)); result = 0
Molecule = QVQSRTKIEECVVCSDKKAAVLFQPCGHMCACENCANLMKKCVQCRAVVERRVPFI (MIB1 RING domain (UniProt Q86YT6)); result = 0
Molecule = LGTKLEAKYLCSACRNVLRRPFQAQCGHRYCSFCLASILSSGPQNCAACVHEGIYEEGIS (TRAF2 RING domain (UniProt Q12933)); result = 0

Series 3
Target: CCNE2, cyclin fold, Cln2 fusion (human)
Method: yeast growth competition, sequencing
Sample: yeast
Setting: weak parent motif
Reference: not given
Direction: higher = stronger binding
Quantity: normalised enrichment score
Starting sequence: MICAL3 docking peptide (human); LQLRRQLSFSEDS
Change = LQLKRQLSFSEDS [R4K]; result = 0.271
Change = LQLRRQLSFSERS [D12R]; result = 0.318
Change = LQLRSQLSFSEDS [R5S]; result = 0.053
Change = LQLRRQLSMSEDS [F9M]; result = 0.0993
Change = LQGRRQLSFSEDS [L3G]; result = 0.659
Change = LQLRRYLSFSEDS [Q6Y]; result = 0.59
Change = LQLRRQLSFQEDS [S10Q]; result = 0.163
Change = LQLRRQLSFSGDS [E11G]; result = 0.656
Change = LQLRRQRSFSEDS [L7R]; result = 0.0139
Change = LQLRRQLSFSECS [D12C]; result = 0.789

Series 4
Target: Interferon regulatory factor 7, full length, phosphomimetic (IRF7, Homo sapiens, UniProt Q92985, residues 1-503, S471D/S472D/S475D/S476D/S477D/S483D/S484D/S487D)
UniProt Q92985, sequence (whole entry, unmodified, looked up): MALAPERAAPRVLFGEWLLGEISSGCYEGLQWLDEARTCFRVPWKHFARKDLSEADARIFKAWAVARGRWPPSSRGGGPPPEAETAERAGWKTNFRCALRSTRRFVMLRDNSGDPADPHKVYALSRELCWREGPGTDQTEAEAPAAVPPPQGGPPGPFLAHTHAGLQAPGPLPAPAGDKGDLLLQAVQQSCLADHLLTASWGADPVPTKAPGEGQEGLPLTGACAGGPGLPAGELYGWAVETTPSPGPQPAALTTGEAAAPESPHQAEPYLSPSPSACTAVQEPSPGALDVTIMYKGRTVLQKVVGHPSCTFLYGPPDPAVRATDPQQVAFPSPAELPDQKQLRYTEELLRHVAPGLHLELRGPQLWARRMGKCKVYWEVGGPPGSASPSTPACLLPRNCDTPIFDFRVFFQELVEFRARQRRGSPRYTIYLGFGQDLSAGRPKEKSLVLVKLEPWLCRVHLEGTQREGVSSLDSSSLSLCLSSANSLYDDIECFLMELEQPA
Method: protein-binding microarray
Molecule type: double-stranded DNA, one strand shown
Sample: in vitro
Concentration: 2200 nM top
Setting: 60-bp whole probe
Together with: salmon DNA 0.4 mg/ml
Reference: random background probes
Direction: higher = stronger binding
Quantity: fitted relative affinity
Constant ends, left off below: GCCTAGCAC … GTCTTGATTCGCTTGACGCTGCTG
Sequence = TCACATCGTAAGCAAAAACTGTGCTAG; result = 0.588 z-score
Sequence = TTAGATCTCAGACTGGATTGGTGCTAG; result = -0.178 z-score
Sequence = TTAGATATCAGTTTCCATTAGTGCTAG; result = 2.29 z-score
Sequence = TCATGGTTCCCATTCCAACTGTGCTAG; result = 1.85 z-score
Sequence = ATTGCTTCCTCTTTTTTGTTGTGCTAG; result = 2.64 z-score
Sequence = CTAGGTCTCGGTATCGGTTAGTGCTAG; result = 0.905 z-score
Sequence = TCACCTGTCCTTTTCTTACTGTGCTAG; result = 2.62 z-score
Sequence = CCTGGCTTCATGTTGCTCTCCGTGCTA; result = 0.645 z-score
Sequence = GACGGTATCCTTCTTCTGACGTGCTAG; result = 1.26 z-score
Sequence = GACGGACTGGGGTTGCGGGACGTGCTA; result = -0.657 z-score
Sequence = TTAGGTTGCGGGTATCGGTTAGTGCTA; result = 0.761 z-score
Sequence = TCACTTTTGAGAGATGGAACTGTGCTA; result = 1.29 z-score
Sequence = GACGAACTGAGTCTCGAGATGTGCTAG; result = 0.076 z-score
Sequence = CCATTTTGTGTTTTCATTTTGTGCTAG; result = 5.72 z-score
Sequence = GACGATCTCAGTTACGAGACGTGCTAG; result = 0.243 z-score
Sequence = TTGTTTTTTGGTTTCTGGTTGTGCTAG; result = 6.09 z-score

Series 5
Target: RNA binding protein fox-1 homolog 2, RRM domain, GST-SBP tag (RBFOX2, Homo sapiens, UniProt O43251-10, residues 100-194)
Method: RNA Bind-n-Seq
Molecule type: RNA
Sample: in vitro
Concentration: 365 nM
Setting: natural RNA segment, single round, ends assumed
Reference: no-protein control
Direction: higher = stronger binding
Quantity: RBNS enrichment (R)
Constant ends, left off below: GGGAGUUCUACAGUCCGACGAUC … UGGAAUUCUCGGGUGCCAA
Target sequence (chain): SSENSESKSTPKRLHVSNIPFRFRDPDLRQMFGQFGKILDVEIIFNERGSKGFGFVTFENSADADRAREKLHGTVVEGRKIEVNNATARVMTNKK
Sequence = UGUGGCUGAGGCUGUAGCAUCUCUGCUGGAGGUGAGACACUCUGGGAACUGAUUUGACCUCGAAUGCUCCUAAAAGAGAACUUGAUAGCCUGACAGCAGAGAAGUAUUAU; result = 1.23
Sequence = AGGGGAAAGUAACCUGAACUUUAAUGUCUUUUGGAACAAAACCAAAGUUUAAGAUUUGCCAUAUGACGACGUGGUGACCGGGAAGUCCAGAGUCGGCAAGCAGGUGCCAG; result = 1.6
Sequence = CUUGAGGGCUGUGCCAAUCCUAGUGAACCAAAAUGCAAACAACUCACACAAGUGAAAAGCUCCCUGCUUUGAAAACAGGACAUGUUGACAGGCAGCAUGGUAUGUUUUUA; result = 0.872
Sequence = UAACUAAGGUUUUGCUACUAAUGUCAGCCAUUUACUCUCCCACUAAUUGGGAUUAUUUUUUAAAAGAGGUCUUUCUCCCCGAAAUACAAGUUUUAGAAAAUCUUAGAAGA; result = 0.552
Sequence = UGUCCAACCAGCUACCCACCUCAACUCCCCUGUAGUUUAGGACACAAAACAGCUACCAGCGGUACAGAGCGGUGAUCAAAGCCGAGUACUUACAACUCUGGUAAGCCUAG; result = 0.396
Sequence = GCUUUGGCAUGCUCUGACCGCUCCUCUGUCACCUGCUUGGCUCCCAAGCUCUCUAGAGCAUCUGGACACAUGUUAACAAGCAUAGCCACUGACCUUAACCACAACCAUUA; result = 1.11
Sequence = GAGGGAGAGUGAAUUGUCGUGGAAAACUAGGGUCGAUUUCACGUACCUCUCGGGACAACUUUUAAAAGCUAUUUUUACCAAGUAUUUUGUAAAUGCUAAUUUUUUAGGAC; result = 0.393
Sequence = UGGCCCGGGACACGGGCACUCUUCAUGACCCCUCCCCCACCUGGGUUCUUCCUGUGUGGUCCAGAACCACGAGCCUGGUAAAGGAACUAUGCAAACACAGGCCCUGACCU; result = 0.234
Sequence = UCUGUCCCUCCCACCUUGCCUUAUCCUUCAUUGGUUUCUUCACACACUCAAUAAAGAAGCAUGCUUGAGAUCUUAUUGUUCCAAGAUCAGUUUAGCCAAGACAUAAACCG; result = 6.45
Sequence = CUGUACAUUAUCUUUGGUAACACUAGACUAGUGUAGUCUUGGGGAACACACCGAGGAAACAUGUAGCGAGAAUCACAUACAAGGCUUGGUGUUUCAUAAGCAUGCCUGCU; result = 1.38
Sequence = GCAGGCCUUCUUCUUCCGGAGUUGGUGAUUCUAACUUUAGAAGUUCCAGGUUGUGGGCUAUGGUAUUUGGGAUCCUGCAAAAGCACAUACACGUUUGUUCUAUGUUGUAA; result = 0.264
Sequence = CAUUUUAGCAACUAGUGUGGCGGCCACUUAAUUUGCCAGCCUCUCCAAGCCUGAAAAGGUCCAGGUGUCUAAGCUCUUCUCUGACUGCAACGAGUUGAAUUCUAAUCCUC; result = 0.373

Mixed results
Method: cross-linking MS
Substance = EP400 (Homo sapiens, UniProt Q96L91); partner = RUVBL2 (Homo sapiens, UniProt Q9Y230); test system = cell fractions; conditions = together with: DSSO; quantity = cross-linked residues; result = K1432 to K236
Substance = FOXRED1 (Homo sapiens, UniProt Q96CU9); partner = DMAC2 (Homo sapiens, UniProt Q9NW81); conditions = hits only; quantity = interaction screen; result = cross-linked
Substance = PDIA3 (Homo sapiens, UniProt P30101); partner = SRRM2 (Homo sapiens, UniProt Q9UQ35); test system = cell fractions; conditions = together with: DSSO; quantity = cross-linked residues; result = K274 to S1502
Substance = RBM34 (Homo sapiens, UniProt P42696); partner = RBM28 (Homo sapiens, UniProt Q9NW13); test system = cell fractions; conditions = together with: DMTMM; quantity = cross-linked residues; result = K369 to E456

A few entries again (series 4):
Sequence = TCACCTGTCCTTTTCTTACTGTGCTAG; result = 2.62 z-score
Sequence = TCACTTTTGAGAGATGGAACTGTGCTA; result = 1.29 z-score
Sequence = TTAGATATCAGTTTCCATTAGTGCTAG; result = 2.29 z-score
Sequence = TTAGGTTGCGGGTATCGGTTAGTGCTA; result = 0.761 z-score
Sequence = GACGGACTGGGGTTGCGGGACGTGCTA; result = -0.657 z-score
Sequence = TCACATCGTAAGCAAAAACTGTGCTAG; result = 0.588 z-score
Sequence = TTAGATCTCAGACTGGATTGGTGCTAG; result = -0.178 z-score
Sequence = ATTGCTTCCTCTTTTTTGTTGTGCTAG; result = 2.64 z-score
Sequence = GACGAACTGAGTCTCGAGATGTGCTAG; result = 0.076 z-score
Sequence = TTGTTTTTTGGTTTCTGGTTGTGCTAG; result = 6.09 z-score
